Assay results collected from several papers.
Numbered parts are unrelated; each lists some results of a single study. Substitutions count along the parent as printed.

Series 1
Target: JUND, bZIP domain (human)
Method: DHFR protein complementation
Sample: yeast
Notes: single substitutions, most at no-binding floor
Reference: wild-type JUN-FOS pair
Reading: higher = stronger binding
Starting sequence: JUN, bZIP domain (human); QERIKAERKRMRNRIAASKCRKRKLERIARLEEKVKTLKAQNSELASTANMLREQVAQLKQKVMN
Substitution | binding fitness [natural log]
Q41W | -1.31
N42T | -1.34
V56Q | -1.41
E33P | -1.48
Q55Y | -1.34
L52C | -1.45
T37P | -1.46
L31G | -1.41

Series 2
Target: PABPC1L2, full length, GST fusion (mouse, UniProt A0ABA7IW68)
Method: RNAcompete
Form: RNA
Sample: in vitro
Concentration: 20 nM
Notes: 7-mer, probes averaged, single round
Reference: mean of 7-mers
Reading: higher = stronger binding
Residues (chain): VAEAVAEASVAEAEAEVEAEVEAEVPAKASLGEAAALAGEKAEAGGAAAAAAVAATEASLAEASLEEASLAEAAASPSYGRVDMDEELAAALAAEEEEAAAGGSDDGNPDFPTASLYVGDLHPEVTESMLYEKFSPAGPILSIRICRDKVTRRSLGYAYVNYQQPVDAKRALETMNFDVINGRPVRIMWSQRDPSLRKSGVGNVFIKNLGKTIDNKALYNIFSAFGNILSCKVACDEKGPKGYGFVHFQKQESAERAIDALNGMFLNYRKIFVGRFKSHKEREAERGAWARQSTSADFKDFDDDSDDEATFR
Sequence | 7-mer Z-score
GAAUUGU | -0.235
GGGGCUA | 0.495
AGAUAAG | 0.0406
AAAUUCC | 0.678
CAGUCCC | -0.219
AGGGGGC | 0.586
GGUACGA | -0.0228
CGCCAUU | -0.271

Further values, each from its own experiment
Substance | tested on | assay | system | setting | measurement | value
CCC(=O)N[C@@H]1CC[C@H](C(=O)N(C)c2ccc(-c3nc4ccccc4o3)cc2)C1 | Tyrosine-protein kinase ABL1, non-phosphorylated (ABL1, Homo sapiens, UniProt P00519, H396P) | cell-free assay, competition with immobilised ligand | – | 1 µM | remaining binding | 46%
HNRNPK (Homo sapiens, UniProt P61978) | MGAT2 (Homo sapiens, UniProt Q10469) | cross-linking MS | cell fractions | added: DSSO | cross-linked residues | S216 to S137

A few entries again (series 2):
Sequence | 7-mer Z-score
GGGGCUA | 0.495
